Results of several laboratories.
Numbered parts are unrelated; each lists some results of a single study.

Set 1
Target: Sal-like protein 4, full length isoform A (SALL4, Homo sapiens, UniProt Q9UJQ4, residues 1-1053)
UniProt Q9UJQ4, sequence (whole entry, looked up): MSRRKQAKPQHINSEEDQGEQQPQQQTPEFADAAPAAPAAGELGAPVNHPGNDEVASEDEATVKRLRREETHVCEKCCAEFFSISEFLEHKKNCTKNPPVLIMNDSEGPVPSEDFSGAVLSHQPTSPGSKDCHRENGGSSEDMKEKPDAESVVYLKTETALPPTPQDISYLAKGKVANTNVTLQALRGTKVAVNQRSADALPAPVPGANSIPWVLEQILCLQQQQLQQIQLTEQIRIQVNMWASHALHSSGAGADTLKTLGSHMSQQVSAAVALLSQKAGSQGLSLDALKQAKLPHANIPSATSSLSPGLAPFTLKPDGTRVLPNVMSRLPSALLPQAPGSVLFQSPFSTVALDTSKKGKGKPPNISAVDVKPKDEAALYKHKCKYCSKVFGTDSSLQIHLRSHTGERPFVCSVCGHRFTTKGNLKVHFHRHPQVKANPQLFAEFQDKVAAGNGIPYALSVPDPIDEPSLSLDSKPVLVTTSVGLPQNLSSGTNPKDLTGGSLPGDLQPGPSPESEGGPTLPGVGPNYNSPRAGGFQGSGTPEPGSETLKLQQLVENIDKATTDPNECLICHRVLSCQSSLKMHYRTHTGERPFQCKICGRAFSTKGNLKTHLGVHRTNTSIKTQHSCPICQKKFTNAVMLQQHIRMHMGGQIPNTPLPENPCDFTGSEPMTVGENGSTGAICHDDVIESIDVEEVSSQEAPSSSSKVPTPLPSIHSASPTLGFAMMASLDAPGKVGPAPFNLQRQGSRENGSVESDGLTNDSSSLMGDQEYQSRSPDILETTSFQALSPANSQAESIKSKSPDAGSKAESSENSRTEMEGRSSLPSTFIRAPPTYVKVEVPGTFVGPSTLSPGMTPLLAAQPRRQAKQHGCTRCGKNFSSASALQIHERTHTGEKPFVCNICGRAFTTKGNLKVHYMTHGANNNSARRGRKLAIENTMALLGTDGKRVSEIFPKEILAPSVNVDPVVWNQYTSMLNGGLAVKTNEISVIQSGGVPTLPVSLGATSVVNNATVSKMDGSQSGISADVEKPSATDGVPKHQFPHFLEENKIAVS
Technique: universal PBM
Form: double-stranded DNA, one strand shown
Sample: in vitro
Concentration: 600 nM
Setting: 8-mer, flanks averaged, mean of replicates
Direction: higher = stronger binding
| Sequence | E-score |
| --- | --- |
| CTCTATTC | 0.0222 |
| AATCATGT | 0.266 |
| CACGGGTC | -0.25 |
| ATCGACGG | -0.141 |
| GCTGGTTA | 0.0478 |
| ACAGATCC | 0.0184 |
| TCGCCGAA | 0.00187 |
| CTATCTTC | 0.202 |
| AGCCACTG | -0.227 |
| GCGCTCAA | -0.165 |
| GTCAGGAA | 0.0584 |
| ATCATGGC | 0.0348 |
| AGTGGCCG | -0.337 |
| TCGCATAA | 0.289 |
| ATTAATCG | 0.313 |
| CGATGCAC | -0.156 |
| GCGACCCA | -0.33 |
| GACCTCGA | -0.0973 |

Set 2
Target: RNA binding protein fox-1 homolog 2, RRM domain, GST-SBP tag (RBFOX2, Homo sapiens, UniProt O43251-10, residues 100-194)
Technique: RNA Bind-n-Seq
Form: RNA
Sample: in vitro
Concentration: 365 nM
Setting: natural RNA segment, single round, ends assumed
Relative to: no-protein control
Direction: higher = stronger binding
Construct (chain): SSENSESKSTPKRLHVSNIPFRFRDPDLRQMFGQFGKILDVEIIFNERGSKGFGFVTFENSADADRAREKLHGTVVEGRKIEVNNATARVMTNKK
| Sequence | RBNS enrichment (R) |
| --- | --- |
| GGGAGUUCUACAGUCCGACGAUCGUAAGAUAUUAUUUCUGAAACAGUUUUAGUUAUAUCCACUAUGAUUAUAAACUGUGUCUCGACCUGUGUUAUUUACAUUAGCUGCUUAAAGGAGCAUUGAGUUCUUUGGUUGGAAUUCUCGGGUGCCAA | 0.44 |
| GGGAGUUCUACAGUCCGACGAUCAAACCCACCAAACCAACAGGAUAAUUGACAAAUAAACGCCAUAGGCUAGGCUGAACUGUAUGUUACUGUUUUCAUGCUUAUACAUAUAUUUUCAAUCACAUACAAGUACAUGGAAUUCUCGGGUGCCAA | 0.488 |
| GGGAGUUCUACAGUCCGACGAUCAGGUAAACAAAAGAAUUUGUAUUGCUUGAUAAAUAUUAGCUUGUAAAUUUAAAGUUUCUUUACUUCAAUUAACUUAAAGGACCAAUAAACCCAUAAAAGAUGCUUUCUUUUGGAAUUCUCGGGUGCCAA | 0.555 |
| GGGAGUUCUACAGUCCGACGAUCAAGUAAAAAACACCUUUAAAAUCAUGUCAGCCUGCUUAGAAUGUACAUGUUAAAAAGCAAUUUAAGAUGAAAAAACUAGCUUUACAGUGUGUACACUUUUUCUCUAAAAUUGGAAUUCUCGGGUGCCAA | 0.644 |
| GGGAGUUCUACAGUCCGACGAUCGGCCUGCCUGUUCCCAUUCUUGCAUGGCAAGGACUGCAGGGACUGCCAGUCCCCCUGCCCCAGGGCUCCCGGCUAUGGGGGCACUGAGGACCAGCCAUUGAGGGGUGGACUGGAAUUCUCGGGUGCCAA | 2.1 |
| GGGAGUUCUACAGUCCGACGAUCCAUCCCCGGGAGUGCUCGUGGGAAGUGGCCUCCACAGAAGGUAGUCAUCUUCAUCCUCUAGGACAUUUAAAACAUGCUCAGUCCCUGGACCCAGAUGAUGGCUUCUCAGGUGGAAUUCUCGGGUGCCAA | 0.298 |
| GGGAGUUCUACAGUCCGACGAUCAAGCCCAAGCGGGAAACCCGCCCGGGAACUGUUCGCAGUUGACAACAAACUCUGACGCCCUCUGUUUUCAGUGAGUAGUGAACUCCGGAAGCACAAAGGCCAGCGUGACAUGGAAUUCUCGGGUGCCAA | 0.214 |
| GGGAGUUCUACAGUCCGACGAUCUGUGGCUGAGGACUCAAGGCUGUGAAGACCAGGAGUUCCUGCUCUUGACAUUAUUCCUCCCACUUUGAUCCAGUGUGUGGCUUAUUGUGUUGCCAUGGUAACAGAGAAUCUGGAAUUCUCGGGUGCCAA | 0.246 |
| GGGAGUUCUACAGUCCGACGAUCUGAGAGGGAAAGUCUAGUAUCAAUUCUUCUGUUUGCUCGCAAUGACACAAAUAGGUUUUGGGGAUCUACCUAAGGGAUAGGUCUACUCCAAAAUUAUUAAAUUUAUAAUUUGGAAUUCUCGGGUGCCAA | 0.404 |
| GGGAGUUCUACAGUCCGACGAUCUUUCCUGCAUCUCUCAGACAGGACUCACCAUCUCUGCCUCCCAUGAGGCUUACAGAGUUCAAUGUUGGAAAUCAUUGUAAUCUUCAAAAUAAGUCACCGUGUUGGAUUGAUGGAAUUCUCGGGUGCCAA | 0.28 |
| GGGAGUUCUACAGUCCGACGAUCCCCACUCCUUUCAUAUACGUUUGUGAAGCACCUGCCUUGAGUUCUAAUAAAAUUGCCCGUUUUGCAUUUGUACCCAGAGUAAUAUGUGCCAGAUACUUCAAUCUCAGAAUUGGAAUUCUCGGGUGCCAA | 1.67 |
| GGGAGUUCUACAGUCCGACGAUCACAGAGGACUGAAACCUCCACUGCAGGCUGGUUUUAGGUCUUGAAUUAUGUAAGAAUCUUGCACAGCACUGCUAAUGUAAAUUUCAGUUGUUUUUCCCUCUAGGACAAACUGGAAUUCUCGGGUGCCAA | 0.389 |

Set 3
Target: Histone acetyltransferase KAT6A, winged helix 1, GST fusion (KAT6A, Homo sapiens, UniProt Q92794, residues 1-85)
Technique: protein binding microarray
Form: double-stranded DNA, one strand shown
Sample: in vitro
Concentration: not given
Setting: 8-mer, flanks averaged, mean of 2 arrays, mostly near background
Relative to: not given
Direction: higher = stronger binding
Residues (chain): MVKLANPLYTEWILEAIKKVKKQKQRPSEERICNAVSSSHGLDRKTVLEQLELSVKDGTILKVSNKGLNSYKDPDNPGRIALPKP
| Sequence | E-score |
| --- | --- |
| ATCCTTCC | -0.0812 |
| CTCCGAGA | 0.0126 |
| CCGCAGCC | 0.152 |
| AATGGACT | -0.26 |
| GCAGGGTA | -0.168 |
| ACTTCGTC | -0.00627 |
| AAGCTCCA | -0.19 |
| CTAATCAC | -0.133 |
| TGCATTAA | -0.142 |
| CCGGCTTC | 0.252 |
| AAAAACAG | -0.193 |
| AACTGTCA | -0.0415 |
| CGAGTACC | 0.0673 |
| TAGATATA | 0.0205 |
| GATTTAAC | 0.0787 |
| AACTTGAG | -0.27 |
| GAAGTTCC | 0.0182 |
| ACTGTCTC | -0.0496 |
| CGCTTTTC | 0.186 |
| CTACGCTC | 0.132 |

Set 4
Target: Interferon regulatory factor 7, full length, phosphomimetic (IRF7, Homo sapiens, UniProt Q92985, residues 1-503, S471D/S472D/S475D/S476D/S477D/S483D/S484D/S487D)
UniProt Q92985, sequence (whole entry, unmodified, looked up): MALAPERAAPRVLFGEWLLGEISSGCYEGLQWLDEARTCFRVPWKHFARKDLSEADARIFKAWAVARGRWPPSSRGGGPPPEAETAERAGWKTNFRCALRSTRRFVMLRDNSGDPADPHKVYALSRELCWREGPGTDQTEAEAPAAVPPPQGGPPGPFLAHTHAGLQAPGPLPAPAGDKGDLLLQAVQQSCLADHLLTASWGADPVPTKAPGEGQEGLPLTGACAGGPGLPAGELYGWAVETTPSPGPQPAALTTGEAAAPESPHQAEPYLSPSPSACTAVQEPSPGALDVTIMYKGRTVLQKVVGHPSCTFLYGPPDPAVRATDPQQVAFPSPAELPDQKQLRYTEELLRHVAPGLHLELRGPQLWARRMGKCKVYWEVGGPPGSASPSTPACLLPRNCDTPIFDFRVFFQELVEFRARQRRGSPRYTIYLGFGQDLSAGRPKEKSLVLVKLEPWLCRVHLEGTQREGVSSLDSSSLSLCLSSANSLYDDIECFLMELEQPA
Technique: protein-binding microarray
Form: double-stranded DNA, one strand shown
Sample: in vitro
Concentration: 2200 nM top
Setting: 60-bp whole probe
Added: salmon DNA 0.4 mg/ml
Relative to: random background probes
Direction: higher = stronger binding
All sequences stand within: GCCTAGCAC … GTCTTGATTCGCTTGACGCTGCTG
| Sequence | fitted relative affinity [z-score] |
| --- | --- |
| TTAGGTATAGACTATCGGTTAGTGCTA | -0.106 |
| GACGGACTGCTACTGCTGCCGTGCTAG | -0.348 |
| TTAGGACTGCTTGTCCTTTAGTGCTAG | 0.134 |
| TTAGGTTTCGGGTATCTGTTAGTGCTA | 5.65 |
| ATAGGACTGGGGTATCGGTTAGTGCTA | -0.481 |
| TCATCTCTGCTTCTGTAACTGTGCTAG | 1.8 |
| GACGGTTTCCTTCTCCTCACGTGCTAG | 3.22 |
| TCATTTTTTTTTTGGAAACTGTGCTAG | 1.78 |
| GACGGACTGGGTATCAGGACGTGCTAG | -0.734 |
| TCAACTTTCCAAAACATACTGTGCTAG | 1.25 |
| GACAATTTCAGTTCCGAGACGTGCTAG | 1.86 |
| TCACATATTTGTTTCCAACTGTGCTAG | 1.93 |
| GTGGTTTTCATTATTGCTTCGTGCTAG | 2.65 |
| GACGGCTTCGACACTGGGGACGTGCTA | -0.61 |
| TTCGGTCTCCTTATCCTTTAGTGCTAG | 2.2 |
| TTCGGTATCCTTATCCTTTAGTGCTAG | 1.97 |
| CGAGTTTTCTCTCCCATTCTGTGCTAG | 2.21 |
| TGCATCGTAAGCAAAAATGAGTGCTAG | -0.3 |
| TTAGATATCGGTATCGGTTAGTGCTAG | 0.728 |
